Assay results of several laboratories.
Each line is one published result; not all experiments were run side by side.
Method: steady-state kinetics
B1: UGT1A9 (Homo sapiens, UniProt O60656); chain GKLLVVPMDGSHWFTMRSVVEKLILRGHEVVVVMPEVSWQLGRSLNCTVKTYSTSYTLEDLDREFKAFAHAQWKAQVRSIYSLLMGSYNDIFDLFFSNCRSLFKDKKLVEYLKESSFDAVFLDPFDNCGLIVAKYFSLPSVVFARGILCHYLEEGAQCPAPLSYVPRILLGFSDAMTFKERVRNHIMHLEEHLLCHRFFKNALEIASEILQTPVTEYDLYSHTSIWLLRTDFVLDYPKPVMPNMIFIGGINCHQGKPLPMEFEAYINASGEHGIVVFSLGSMVSEIPEKKAMAIADALGKIPQTVLWRYTGTRPSNLANNTILVKWLPQNDLLGHPMTRAFITHAGSHGVYESICNGVPMVMMPLFGDQMDNAKRMETKGAGVTLNVLEMTSEDLENALKAVINDKSYKENIMRLSSLHKDRPVEPLDLAVFWVEFVMRHKGAPHLRPAAHDLTWYQYHSLDVIGFLLAVVLTVAFITFKCCAYGYRKCLGKKGRVKKAHKSKTH
B2: enzyme (Triticum aestivum, UniProt A0A6J4BJH4); chain MPSTESAAGVAWDRRRELQAFDDTKAGVKGLVDAGVTALPPIFRHSPESLESITSSNHVAGAIPTVDLAAPRREDAVALVRHAARTVGFFQVVNHGVPAELMAGMLEGVRRFNEGPAEAKQAIYSRDQARKVRFASNFDLFSSAAANWRDTLFFHLAPDPAPSEELPEAVRDVVTEYGHAVTKVGLSVLELLSESLGLSSDHLRDMDCAENLNAVCQYYPPCPEPYLTWGTKRHTDPGFLTVLLQDGMGGLQVLVDGKTWVDVPPVPGAFIINIGDLLQLVSNDQFRSVEHRVLANKSKDTARVSVASFFNTNIERSTRLYGPITDGRNPPIYRSVTAREFIATFNRIGLDGRSLDQYRLDRDTPTPAVEGCE
B3: SULT1A1 I89A (Homo sapiens, UniProt P50225); chain MELIQDTSRPPLEYVKGVPLIKYFAEALGPLQSFQARPDDLLISTYPKSGTTWVSQILDMIYQGGDLEKCHRAPIFMRVPFLEFKAPGAPSGMETLKDTPAPRLLKTHLPLALLPQTLLDQKVKVVYVARNAKDVAVSYYHFYHMAKVHPEPGTWDSFLEKFMVGEVSYGSWYQHVQEWWELSRTHPVLYLFYEDMKENPKREIQKILEFVGRSLPEETVDFVVQHTSFKEMKKNPMTNYTTVPQEFMDHSISPFMRKGMAGDWKTTFTVAQNERFDADYAEKMAGCSLSFRSEL
B4: tsaM1 F253S/H255G/M230N/R216A/S234V/S257H/T232I/Y220I (Comamonas testosteroni, UniProt P94679); chain MFIRNCWYVAAWDTEIPAEGLFHRTLLNEPVLLYRDTQGRVVALENRCCHRSAPLHIGRQEGDCVRCLYHGLKFNPSGACVEIPGQEQIPPKTCIKSYPVVERNRLVWIWMGDPARANPDDIVDYFWHDSPEWRMKPGYIHYQANYKLIVDNLLDFTHLAWVHPTTLGTDSAASLKPVIERDTTGTGKLTITRWYLNDDMSNLHKGVAKFEGKADAWQIIQWSPPALLRNDIGVAPTGTGAPEGRRVPEAVQSRGTHIQTPETETTSHYWFCQARNFDLDDEALTEKIYQGVVVAFEEDRTMIEAHEKILSQVPDRPMVPIAADAGLNQGRWLLDRLLKAENGGTAP
B5: protein Y93D (Thermus thermophilus, UniProt Q5SKR5); chain MSAPKPFVIGIAGGTASGKTTLAQALARTLGERVALLPMDHYYKDLGHLPLEERLRVNYDHPDAFDLALYLEHAQALLRGLPVEMPVYDFRADTRSPRRTPVRPAPVVILEGILVLYPKELRDLMDLKVFVDADADERFIRRLKRDVLERGRSLEGVVAQYLEQVKPMHLHFVEPTKRYADVIVPRGGQNPVALEMLAAKALARLARMGAA
B6: enzyme (UniProt A0A2T5C445); chain MKSKQLNTDLFKVQAKQQIRLKNYDPASCNGFANRKEAEHQLKQDIKELADLQYQLYAENKRSVLIVFQAMDAAGKDGSIRHVFSGLNPQGCKVYSFKSPSANELDHDYLWRHYNKLPPRGEIGIFNRSHYENVLITRVHPEFLLNENLPDVHATNDITTEFWERRYRQIRDFEQTLTENGTTIIKFFLHLSKDEQKKRFMERIRKPAKNWKFSSADIRERQYWDDYQHAYEQAMRATSTEEAPWYIIPADNKWFTHVAIGNIIVETLQQMNIQMPEISSEEKDALKKAKKKLQNE
B7: GMPS (Escherichia coli, UniProt P04079); chain MTENIHKHRILILDFGSQYTQLVARRVRELGVYCELWAWDVTEAQIRDFNPSGIILSGGPESTTEENSPRAPQYVFEAGVPVFGVCYGMQTMAMQLGGHVEASNEREFGYAQVEVVNDSALVRGIEDALTADGKPLLDVWMSHGDKVTAIPSDFITVASTESCPFAIMANEEKRFYGVQFHPEVTHTRQGMRMLERFVRDICQCEALWTPAKIIDDAVARIREQVGDDKVILGLSGGVDSSVTAMLLHRAIGKNLTCVFVDNGLLRLNEAEQVLDMFGDHFGLNIVHVPAEDRFLSALAGENDPEAKRKIIGRVFVEVFDEEALKLEDVKWLAQGTIYPDVIESAASATGKAHVIKSHHNVGGLPKEMKMGLVEPLKELFKDEVRKIGLELGLPYDMLYRHPFPGPGLGVRVLGEVKKEYCDLLRRADAIFIEELRKADLYDKVSQAFTVFLPVRSVGVMGDGRKYDWVVSLRAVETIDFMTAHWAHLPYDFLGRVSNRIINEVNGISRVVYDISGKPPATIEWE
B8: CDO (Bacillus subtilis, UniProt O32085); chain MELYECIQDIFGGLKNPSVKDLATSLKQIPNAAKLSQPYIKEPDQYAYGRNAIYRNNELEIIVINIPPNKETTVHDHGQSIGCAMVLEGKLLNSIYRSTGEHAELSNSYFVHEGECLISTKGLIHKMSNPTSERMVSLHVYSPPLEDMTVFEEQKEVLENS
B9: enzyme A178R/D177A/M179S/P184R (Levilactobacillus brevis, UniProt Q03Q85); chain MKVTVVGCTHAGTFAIKQILAEHPDAEVTVYERNDVISFLSCGIALYLGGKVADPQGLFYSSPEELQKLGANVQMNHNVLAIDPDQKTVTVEDLTNHAQTTESYDKLVMTSGSWPIVPKIPGIDSDRVKLCKNWAHAQALIEDAKEAKRITVIGAGYIGAELAEAYSTTGHDVTLIARSARVMRKYFDADFTDVIEQDYRDHGVQLALGETVESFTDSATGLTIKTDKNSYETDLAILCIGFRPNTDLLKGKVDMAPNGAIITDDYMRSSNPDIFAAGDSAAVHYNPTHQNAYIPLATNAVRQGILVGKNLVKPTVKYMGTQSSSGLALYDRTIVSTGLTLAAAKQQGLNAEQVIVEDNYRPEFMPSTEPVLMSLVFDPDTHRILGGALMSKYDVSQSANTLSVCIQNENTIDDLAMVDMLFQPNFDRPFNYLNILAQAAQAKVAQSVNA
B10: ycjS (Escherichia coli, UniProt P77503); chain MKSAMTSSPLRVAIIGAGQVADKVHASYYCTRNDLELVAVCDSRLSQAQALAEKYGNASVWDDPQAMLLAVKPDVVSVCSPNRFHYEHTLMALEAGCHVMCEKPPAMTPEQAREMCDTARKLGKVLAYDFHHRFALDTQQLREQVTNGVLGEIYVTTARALRRCGVPGWGVFTNKELQGGGPLIDIGIHMLDAAMYVLGFPAVKSVNAHSFQKIGTQKSCGQFGEWDPATYSVEDSLFGTIEFHNGGILWLETSFALNIREQSIMNVSFCGDKAGATLFPAHIYTDNNGELMTLMQREIADDNRHLRSMEAFINHVQGKPVMIADAEQGYIIQQLVAALYQSAETGTRVEL
B11: CMBL (Homo sapiens, UniProt Q96DG6); chain MANEAYPCPCDIGHRLEYGGLGREVQVEHIKAYVTKSPVDAGKAVIVIQDIFGWQLPNTRYIADMISGNGYTTIVPDFFVGQEPWDPSGDWSIFPEWLKTRNAQKIDREISAILKYLKQQCHAQKIGIVGFCWGGTAVHHLMMKYSEFRAGVSVYGIVKDSEDIYNLKNPTLFIFAENDVVIPLKDVSLLTQKLKEHCKVEYQIKTFSGQTHGFVHRKREDCSPADKPYIDEARRNLIEWLNKYM
B12: enzyme (Salmonella enterica, UniProt P31570); chain MSDERYQQRQQKVKDRVDARVAQAQEERGIIIVFTGNGKGKTTAAFGTAARAVGHGKNVGVVQFIKGTWPNGERNLLEPHGVEFQVMATGFTWETQNREADTAACMAVWQHGKRMLADPLLDMVVLDELTYMVAYDYLPLEEVISALNARPGHQTVIITGRGCHRDILDLADTVSELRPVKHAFDAGVKAQMGIDY
UniProt P36022, sequence (whole entry, looked up): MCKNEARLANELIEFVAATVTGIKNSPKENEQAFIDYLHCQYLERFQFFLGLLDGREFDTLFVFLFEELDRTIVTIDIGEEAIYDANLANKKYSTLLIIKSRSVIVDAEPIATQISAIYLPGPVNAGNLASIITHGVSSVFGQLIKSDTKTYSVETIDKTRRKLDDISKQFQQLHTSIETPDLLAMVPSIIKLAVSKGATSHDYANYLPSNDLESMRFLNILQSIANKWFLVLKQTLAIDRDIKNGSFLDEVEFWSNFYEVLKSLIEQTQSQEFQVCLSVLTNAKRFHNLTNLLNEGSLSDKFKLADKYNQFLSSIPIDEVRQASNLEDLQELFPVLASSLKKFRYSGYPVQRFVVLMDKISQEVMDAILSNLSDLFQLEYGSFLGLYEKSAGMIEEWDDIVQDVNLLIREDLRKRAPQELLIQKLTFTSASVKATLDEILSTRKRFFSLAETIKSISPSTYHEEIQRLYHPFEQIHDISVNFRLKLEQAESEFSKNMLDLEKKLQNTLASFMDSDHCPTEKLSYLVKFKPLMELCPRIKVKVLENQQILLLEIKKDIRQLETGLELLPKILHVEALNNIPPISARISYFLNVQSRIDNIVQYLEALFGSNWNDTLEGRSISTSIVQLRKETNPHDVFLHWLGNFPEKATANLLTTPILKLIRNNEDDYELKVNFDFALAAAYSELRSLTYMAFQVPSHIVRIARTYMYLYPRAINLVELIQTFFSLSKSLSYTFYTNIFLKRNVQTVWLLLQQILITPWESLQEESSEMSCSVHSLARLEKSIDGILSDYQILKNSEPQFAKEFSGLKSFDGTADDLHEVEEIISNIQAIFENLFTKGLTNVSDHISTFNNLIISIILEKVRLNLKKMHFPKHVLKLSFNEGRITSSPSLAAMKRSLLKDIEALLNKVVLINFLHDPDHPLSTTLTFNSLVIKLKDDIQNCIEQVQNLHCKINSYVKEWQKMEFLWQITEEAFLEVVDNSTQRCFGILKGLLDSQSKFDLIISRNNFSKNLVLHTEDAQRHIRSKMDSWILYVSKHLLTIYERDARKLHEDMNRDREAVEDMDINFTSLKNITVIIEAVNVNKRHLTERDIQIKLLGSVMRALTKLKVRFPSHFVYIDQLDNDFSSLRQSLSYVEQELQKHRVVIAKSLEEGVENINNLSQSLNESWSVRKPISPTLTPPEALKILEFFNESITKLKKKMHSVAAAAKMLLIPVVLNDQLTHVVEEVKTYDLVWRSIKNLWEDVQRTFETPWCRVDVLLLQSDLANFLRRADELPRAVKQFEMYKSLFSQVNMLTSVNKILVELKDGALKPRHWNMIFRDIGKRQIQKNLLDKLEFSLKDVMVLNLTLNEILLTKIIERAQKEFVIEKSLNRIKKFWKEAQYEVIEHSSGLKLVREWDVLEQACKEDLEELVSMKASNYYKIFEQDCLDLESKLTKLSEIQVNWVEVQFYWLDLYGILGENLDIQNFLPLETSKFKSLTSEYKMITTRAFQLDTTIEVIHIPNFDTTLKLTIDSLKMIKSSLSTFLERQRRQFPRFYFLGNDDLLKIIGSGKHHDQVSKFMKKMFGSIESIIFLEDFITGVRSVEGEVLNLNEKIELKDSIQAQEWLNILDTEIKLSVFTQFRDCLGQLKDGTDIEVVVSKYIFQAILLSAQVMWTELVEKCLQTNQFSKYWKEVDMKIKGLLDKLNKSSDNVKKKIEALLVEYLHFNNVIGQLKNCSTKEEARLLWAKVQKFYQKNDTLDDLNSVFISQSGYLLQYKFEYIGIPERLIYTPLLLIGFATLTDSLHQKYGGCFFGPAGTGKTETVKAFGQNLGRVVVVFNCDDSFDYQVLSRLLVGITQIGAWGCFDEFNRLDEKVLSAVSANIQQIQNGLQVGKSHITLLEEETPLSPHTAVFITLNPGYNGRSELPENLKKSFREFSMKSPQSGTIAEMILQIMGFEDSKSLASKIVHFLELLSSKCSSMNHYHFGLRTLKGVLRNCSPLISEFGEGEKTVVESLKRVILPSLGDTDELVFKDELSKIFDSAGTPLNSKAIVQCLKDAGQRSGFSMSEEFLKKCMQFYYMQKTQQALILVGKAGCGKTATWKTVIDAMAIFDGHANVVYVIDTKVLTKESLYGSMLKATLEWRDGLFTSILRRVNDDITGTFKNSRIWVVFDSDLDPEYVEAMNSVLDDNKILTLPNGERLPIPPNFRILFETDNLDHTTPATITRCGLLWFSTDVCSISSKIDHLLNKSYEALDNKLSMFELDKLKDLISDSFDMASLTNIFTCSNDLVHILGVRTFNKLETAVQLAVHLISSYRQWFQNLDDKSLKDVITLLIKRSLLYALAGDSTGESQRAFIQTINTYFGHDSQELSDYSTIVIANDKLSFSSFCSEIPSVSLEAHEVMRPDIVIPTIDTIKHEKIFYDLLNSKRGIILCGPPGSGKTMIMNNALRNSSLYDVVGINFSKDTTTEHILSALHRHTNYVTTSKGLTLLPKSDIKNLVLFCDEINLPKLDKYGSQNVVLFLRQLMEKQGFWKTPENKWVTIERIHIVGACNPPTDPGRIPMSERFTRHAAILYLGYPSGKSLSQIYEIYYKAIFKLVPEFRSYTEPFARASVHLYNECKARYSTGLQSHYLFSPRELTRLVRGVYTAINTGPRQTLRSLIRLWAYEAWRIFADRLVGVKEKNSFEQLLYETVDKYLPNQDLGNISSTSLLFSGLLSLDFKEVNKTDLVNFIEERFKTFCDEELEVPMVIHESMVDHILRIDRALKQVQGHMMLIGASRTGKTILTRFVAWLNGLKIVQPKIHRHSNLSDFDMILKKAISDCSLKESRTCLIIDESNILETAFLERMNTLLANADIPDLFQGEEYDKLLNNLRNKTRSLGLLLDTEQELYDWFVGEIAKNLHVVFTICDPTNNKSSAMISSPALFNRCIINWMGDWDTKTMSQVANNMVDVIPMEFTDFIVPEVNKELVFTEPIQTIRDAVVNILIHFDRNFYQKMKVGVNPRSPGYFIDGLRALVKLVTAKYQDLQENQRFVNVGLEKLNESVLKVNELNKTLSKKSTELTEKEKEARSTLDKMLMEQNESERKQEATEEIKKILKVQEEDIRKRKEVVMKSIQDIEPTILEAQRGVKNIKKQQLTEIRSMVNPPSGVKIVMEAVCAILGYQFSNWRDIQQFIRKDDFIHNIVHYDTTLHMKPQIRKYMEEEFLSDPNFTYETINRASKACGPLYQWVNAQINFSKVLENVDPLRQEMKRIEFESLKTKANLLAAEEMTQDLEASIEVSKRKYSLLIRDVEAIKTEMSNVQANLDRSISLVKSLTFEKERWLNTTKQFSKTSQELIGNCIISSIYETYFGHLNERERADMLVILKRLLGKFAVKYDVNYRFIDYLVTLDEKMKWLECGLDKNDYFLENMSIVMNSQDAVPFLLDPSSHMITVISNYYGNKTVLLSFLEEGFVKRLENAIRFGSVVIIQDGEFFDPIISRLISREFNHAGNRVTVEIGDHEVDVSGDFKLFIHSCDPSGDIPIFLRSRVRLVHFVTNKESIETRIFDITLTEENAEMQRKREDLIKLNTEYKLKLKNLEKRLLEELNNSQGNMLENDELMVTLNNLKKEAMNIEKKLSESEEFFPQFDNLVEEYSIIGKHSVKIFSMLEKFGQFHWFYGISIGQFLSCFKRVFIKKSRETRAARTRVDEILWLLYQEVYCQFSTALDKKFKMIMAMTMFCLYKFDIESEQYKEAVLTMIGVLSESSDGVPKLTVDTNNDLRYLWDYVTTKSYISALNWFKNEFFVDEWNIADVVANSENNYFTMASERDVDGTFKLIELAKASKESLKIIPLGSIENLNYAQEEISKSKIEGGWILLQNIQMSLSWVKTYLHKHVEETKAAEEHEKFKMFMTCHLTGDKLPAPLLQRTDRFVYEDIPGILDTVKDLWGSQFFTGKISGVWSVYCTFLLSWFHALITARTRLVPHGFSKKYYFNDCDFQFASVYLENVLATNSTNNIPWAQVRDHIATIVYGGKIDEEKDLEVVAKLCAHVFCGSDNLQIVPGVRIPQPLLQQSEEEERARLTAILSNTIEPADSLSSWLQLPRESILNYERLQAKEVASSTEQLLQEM
UniProt P30038, sequence (whole entry, looked up): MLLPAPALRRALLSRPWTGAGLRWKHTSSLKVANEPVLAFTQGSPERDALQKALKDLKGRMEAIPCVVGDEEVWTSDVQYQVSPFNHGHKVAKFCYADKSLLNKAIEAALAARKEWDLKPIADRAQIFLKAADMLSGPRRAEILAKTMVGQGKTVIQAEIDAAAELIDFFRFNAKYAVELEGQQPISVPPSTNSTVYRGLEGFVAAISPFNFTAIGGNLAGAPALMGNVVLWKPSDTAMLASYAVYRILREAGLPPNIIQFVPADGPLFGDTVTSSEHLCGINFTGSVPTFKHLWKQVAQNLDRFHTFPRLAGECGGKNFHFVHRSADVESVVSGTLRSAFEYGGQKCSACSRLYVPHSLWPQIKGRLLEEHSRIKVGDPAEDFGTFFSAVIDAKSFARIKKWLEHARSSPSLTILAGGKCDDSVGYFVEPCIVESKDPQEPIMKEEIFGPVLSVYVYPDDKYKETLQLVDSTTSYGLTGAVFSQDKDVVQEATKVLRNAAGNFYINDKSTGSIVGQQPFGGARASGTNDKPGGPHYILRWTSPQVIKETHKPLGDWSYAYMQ

| Molecule | substrate | test system | conditions | Km [µM] |
| --- | --- | --- | --- | --- |
| B1 (UGT1A9) | COc1cc(-c2cc(=O)c3c(O)cc(O)cc3o2)cc(OC)c1OC |  | pH 7.4, 37 °C | 0.45 |
| B2 (enzyme) | O=C1[C@@H](O[C@@H]2O[C@H](CO)[C@@H](O)[C@H](O)[C@H]2O)Oc2ccccc2N1O |  | pH 7.2, 30 °C | 282 |
| B3 (SULT1A1 I89A) | C[C@]12CC[C@@H]3c4ccc(O)cc4CC[C@H]3[C@@H]1CC[C@@H]2O |  | pH 7.2, 25 °C, with: PAPS 0.060–1.5 µM | 1.2 |
| B4 | COc1cc(C(=O)O)ccc1O |  | apparent, with: NADH 1 mM | 20 |
| B5 (protein Y93D) | Nc1ccn([C@@H]2O[C@H](CO)[C@@H](O)[C@H]2O)c(=O)n1 |  | pH 7.2, 25 °C, KCl 100 mM, with: ATP 100–200 µM | 236 |
| B6 (enzyme) | Nc1ncnc2c1ncn2[C@@H]1O[C@H](COP(=O)(O)O)[C@@H](O)[C@H]1O |  | pH 8, 30 °C | 2900 |
| B7 (GMPS) | O=c1[nH]c(=O)c2ncn([C@@H]3O[C@H](COP(=O)(O)O)[C@@H](O)[C@H]3O)c2[nH]1 |  | apparent | 35.3 |
| B8 (CDO) | N[C@@H](CS)C(=O)O |  | pH 6.1, 37 °C, with: O2, Fe(II) | 6600 |
| ALDH4A1 (Homo sapiens, UniProt P30038) | O=C(O)[C@@H]1CCC=N1 |  | pH 7, 20 °C, value for L-P5C, with: NAD+ | 32 |
| enzyme (Chloroflexus aurantiacus, UniProt A9WIU3) | NC(=O)C1=CN([C@@H]2O[C@H](COP(=O)(O)OP(=O)(O)OC[C@H]3O[C@@H](n4cnc5c(N)ncnc54)[C@H](OP(=O)(O)O)[C@@H]3O)[C@@H](O)[C@H]2O)C=CC1 |  | apparent, cofactor varied | 10 |
| B9 (enzyme A178R/D177A/M179S/P184R) | NC(=O)C1=CN([C@@H]2O[C@H](COP(=O)(O)OP(=O)(O)OC[C@H]3O[C@@H](n4cnc5c(N)ncnc54)[C@H](OP(=O)(O)O)[C@@H]3O)[C@@H](O)[C@H]2O)C=CC1 |  | pH 7.5, 37 °C | 2.8 |
| B10 (ycjS) | CO[C@H]1O[C@H](CO)[C@@H](O)[C@H](O)[C@H]1O |  | pH 8, 30 °C, with: NAD+ 2.0 mM | 5600 |
| UGT1A8 (Homo sapiens, UniProt Q9HAW9) | COc1cc2c(cc1CC=C(C)C)C(=O)C[C@@H](c1ccc(O)cc1)O2 |  | pH 7.4, 37 °C | 6.3 |
| B11 (CMBL) | CCCc1nc(C(C)(C)O)c(C(=O)OCc2oc(=O)oc2C)n1Cc1ccc(-c2ccccc2-c2nnn[nH]2)cc1 | lysate | pH 7.4, 37 °C, not purified | 170 |
| DYN1 (Saccharomyces cerevisiae, UniProt P36022) | Nc1ncnc2c1ncn2[C@@H]1O[C@H](CO[P@](=O)(O)O[P@](=O)(O)O[P@@](=O)(O)S)[C@@H](O)[C@H]1O |  | pH 7.2 | 500 |
| B12 (enzyme) | Nc1ncnc2c1ncn2[C@@H]1O[C@H](COP(=O)(O)OP(=O)(O)OP(=O)(O)O)[C@@H](O)[C@H]1O |  | pH 8, 37 °C | 7 |
| protein (UniProt M4ZR24) | Cc1cn([C@H]2C[C@H](O)[C@@H](CO)O2)c(=O)[nH]c1=O |  | phosphorolysis, single substrate, with: phosphate | 120 |
